Published values gathered from unrelated publications.
Parts stem from different laboratories: compare values within a part only. Positions count from the first letter of the parent shown.

Series 1
Target: RNA binding protein fox-1 homolog 2, RRM domain, GST-SBP tag (RBFOX2, Homo sapiens, UniProt O43251-10, residues 100-194)
Method: RNA Bind-n-Seq
Molecule type: RNA
Medium: in vitro
Tested at: 365 nM
Notes: natural RNA segment, single round, ends assumed
Relative to: no-protein control
Reading: higher = stronger binding
All sequences stand within: GGGAGUUCUACAGUCCGACGAUC … UGGAAUUCUCGGGUGCCAA
Residues (chain): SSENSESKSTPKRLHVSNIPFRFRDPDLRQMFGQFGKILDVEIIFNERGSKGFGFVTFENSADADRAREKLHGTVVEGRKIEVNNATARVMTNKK
Sequence | RBNS enrichment (R)
AUAUAAAGCAUACUUUCGAAAUACAAAGGACACUCAUUACAACCCCCAAACUCAGAUCCAGGUAUGAUAGUUUAUGCCUAUAAUCCCAGCACCAGGGAAGCUAAGGUGGA | 0.869
UUUUACGCUAGAAGCUAGGCGGAAGUGAGUGGGCGGGGAUAUGCAAAUAACUAUCUCACAUAGCGCUUCUAAUUUGCCGCGUGUGAGGGGAGCAUUCUGGGAUGGUUUUG | 1.06
CCAGAAGGCUUUCAUUUGUACUCUGCUGGGAGUGACUGGGAAAAACUCCUUCCCUGCUGCUGAGUGGAGAGAGGCCUCAUCCGGCUUUGACCCACCAUCCGUUGCAGAAG | 0.221
UUCUCCUCACCAGCAUGGUACCUGCCCUUACUGCUAGAGCAGCUGCUUGUAGAGGGACAUUCCCUCCUUCCCAGUUUUAACUGGUGGACCACAGUGGGGGGAAAAACAUU | 0.364
CUCCUCCCCCUAAAAAGCUGACUCACUGUGAGUGACCUUGGGCAAGUUCCCAAACCUCCUUGUGCCUCAGUUUCCCCAUCUGGAAAAAAUGGGGCCACCUCUUGCCAGCA | 0.595
GGCACCCGCUGGGCGCGGGCAGCAGGGAAGAGGGAGCAAGGCAUUGUCCACAGACUGCUGGGGUCACUUCUUUGCCCACGGGCUCCCUGCUCCCCCAGUUUUUUUUCUCU | 0.372
UCUGCAGGAGCUGGUGGUGCAAAAAGGCUGGCGUUUGCCAGAGUACAUGGUGACCCAAGAGUCUGGGCCUGCUCACCGCAAAGAGUUCACCAUGACUUGCCGGGUGGAGC | 0.447
GCUUCUACUGCUAACUGCUGUAUUCUGUAUAUACUGUGCCACCCUGUGUGGAGUCUGUGAGUGUGCUCUUGAGUAGCGUGGGCUAGCCAAUCUGCCAUUCAUGGUGUUAU | 0.323

Series 2
Target: PABPC1L2, full length, GST fusion (mouse, UniProt A0ABA7IW68)
Method: RNAcompete
Molecule type: RNA
Medium: in vitro
Tested at: 20 nM
Notes: 7-mer, probes averaged, single round
Relative to: mean of 7-mers
Reading: higher = stronger binding
Residues (chain): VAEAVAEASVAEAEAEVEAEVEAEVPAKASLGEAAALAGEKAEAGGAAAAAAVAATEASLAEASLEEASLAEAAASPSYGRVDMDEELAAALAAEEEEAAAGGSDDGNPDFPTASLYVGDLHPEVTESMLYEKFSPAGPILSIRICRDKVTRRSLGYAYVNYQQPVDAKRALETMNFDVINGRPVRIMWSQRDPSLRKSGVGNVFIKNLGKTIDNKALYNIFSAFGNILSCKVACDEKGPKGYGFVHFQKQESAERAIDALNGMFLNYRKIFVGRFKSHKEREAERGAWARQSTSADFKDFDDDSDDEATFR
Sequence | 7-mer Z-score
UUACCCA | -0.282
AAAGAGC | 2.15
CCUUCGC | -0.423
UAGAACA | 0.0642
UCGUUAA | -0.34
GAAUCAA | 0.191
ACGCCGG | -0.237
CAUGCGU | -0.298
AGGUGGC | 0.227
AAUCCAG | -0.0591
CCGAAAG | -0.112
AGAACAU | -0.0264
UUAGCAA | 0.0859
AAUCGCG | 0.0877
UGGAGCG | 0.287
GACUUUG | -0.284
GAGAUGC | -0.0953
UGGAAGU | 0.0225
CUACCGC | -0.295
GAAACGG | 0.34
CAAAGCU | 0.0787
UACUCGA | -0.213
ACAAGAC | 0.345
GUAGGAA | 0.298
GUCAUGC | -0.271

Series 3
Target: Interferon regulatory factor 5, full length, phosphomimetic (IRF5, Homo sapiens, UniProt Q13568-2, residues 1-514, S451D/S453D/S456D/S462D)
Method: protein-binding microarray
Molecule type: double-stranded DNA, one strand shown
Medium: in vitro
Tested at: 940 nM top
Notes: 60-bp whole probe
Added: salmon DNA 0.4 mg/ml
Relative to: random background probes
Reading: higher = stronger binding
All sequences stand within: GCCTAGCAC … GTCTTGATTCGCTTGACGCTGCTG
Sequence | fitted relative affinity [z-score]
CTCTACCTCGTCATAGTAACGTGCTAG | 0.211
TCTTGTCTGGAGTCTCTGTTCGTGCTA | 1.04
GACGATTTCGGATATCGAGACGTGCTA | 0.622
TTCTGAATGCCCTTCCATCACGTGCTA | 0.303
TCAAGTTCAGTTCTCTAACTGTGCTAG | -0.438
GAAGGTTTCGGGTATCGGGACGTGCTA | 8.55
GACGGATTCGGGTATCGGGACGTGCTA | 1.05
CCAGCTCTGATGTTGGGAAAGTGCTAG | -0.256
GAACCTTGGGCTCTAGGTTCGTGCTAG | 0.0796
TGGACTGCACAAGGGCCAGTGTGCTAG | -0.578
TTAGGACGGGGTCTCGGTTAGTGCTAG | 1.49
GACGGTCTCGGTCTCGGGAGGTGCTAG | 3.99
CTTGGCTTCTCCCACAGGTGGTGCTAG | -0.15
TTAGGTATCGGGTTTGGGTTAGTGCTA | 6.29
GACGGACTGGGTATCGGGACGTGCTAG | 0.747
GAAGATTTCGGGTTTCGAGACGTGCTA | 2.05
TTAGGTATCGACACTTGGTTAGTGCTA | 4.29
TCAACTTTCAGTTCTCCACTGTGCTAG | 2.04

Series 4
Target: CCNB3, cyclin fold, Cln2 fusion (human)
Method: yeast growth competition, sequencing
Medium: yeast
Notes: weak parent motif
Relative to: not given
Reading: higher = stronger binding
Starting sequence: GMNC docking peptide (human); KNAKRNLSSEFAN
Change | normalised enrichment score
F11L | -0.0363
K4Q | 0.111
S8A | 0.0775
R5G | 0.138
N2F | 0.469
L7I | 0.0613
E10D | -0.153
A12E | 0.342
R5W | 0.114
N2R | 0.646
L7R | -0.0122
E10Q | 0.477
L7E | -0.0492
E10Y | -0.342
K4P | 0.348
R5K | 0.291
E10T | 0.129
N6V | -0.00571
A12S | 0.0542
S8W | 0.12
K4W | 0.321
F11W | 0.341
K4E | -0.225
L7P | 0.129
S9Y | 0.583

Single results of other studies
Substance | target | assay | test system | conditions | scale | endpoint | result
PhoQ, residues 284 288 289 292 302 303 TLMATV | PhoP, residues 12 14 15 18 19 AQCLL (Escherichia coli, UniProt P23836) | Sort-seq, measured: YFP reporter | E. coli | PhoQ-PhoP variant library, added: 10 µM Mg2+ | relative to: high Mg2+ state, higher = stronger signaling | fold induction | 2.18

Some of these lines once more (series 3):
Sequence | fitted relative affinity [z-score]
GACGGACTGGGTATCGGGACGTGCTAG | 0.747
TCTTGTCTGGAGTCTCTGTTCGTGCTA | 1.04
TTAGGACGGGGTCTCGGTTAGTGCTAG | 1.49
TTAGGTATCGGGTTTGGGTTAGTGCTA | 6.29
TTAGGTATCGACACTTGGTTAGTGCTA | 4.29
GAACCTTGGGCTCTAGGTTCGTGCTAG | 0.0796
TCAACTTTCAGTTCTCCACTGTGCTAG | 2.04
GACGGTCTCGGTCTCGGGAGGTGCTAG | 3.99
CTTGGCTTCTCCCACAGGTGGTGCTAG | -0.15
GACGGATTCGGGTATCGGGACGTGCTA | 1.05
CCAGCTCTGATGTTGGGAAAGTGCTAG | -0.256
